{"data": "Assay results from different studies", "note": "Every numbered part comes from another study and shows a few of its results, in no order. Positions count from the first letter of the parent shown."}
{"data": "Set 1", "target": "RNA binding protein fox-1 homolog 2, RRM domain, GST-SBP tag (RBFOX2, Homo sapiens, UniProt O43251-10, residues 100-194)", "method": "RNA Bind-n-Seq", "form": "RNA", "sample": "in vitro", "tested at": "365 nM", "notes": "natural RNA segment, single round, ends assumed", "reference": "no-protein control", "direction": "higher = stronger binding", "all sequences stand within": "GGGAGUUCUACAGUCCGACGAUC … UGGAAUUCUCGGGUGCCAA", "Residues (chain)": "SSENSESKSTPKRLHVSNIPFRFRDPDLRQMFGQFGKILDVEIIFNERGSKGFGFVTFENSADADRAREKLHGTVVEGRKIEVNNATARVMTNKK"}
{"Oligonucleotide": "CAUUUAGAAGUUAGAACAGAAAACAAAAAUGCCAGUCAGGCCUCUUCUCCCCAGGUGUACCAUUUUAGCAUAUGCAUUAUGUGAUUGGAAUUGAGGCAUUUUAGUGGACA", "RBNS enrichment (R)": 0.712}
{"Oligonucleotide": "CAGAGCACCUGAUUGGCCCAAAAGACCAGCAAGACCCUUGUCUACUCUGCAGAUGGUGAAGCCUUUGAGGCAGCCUCUUGCUUUCUCCUGUGGGUCCCUUGUGCCCACAG", "RBNS enrichment (R)": 0.221}
{"Oligonucleotide": "GGGUCAGGAGUUGCAAGUUUAACUCCGUCCUCACUUGUAGCAUUGAAUGCCUCCUGUGCUGUCUAGUGGGACUACAGAAUGCUGUUUGAUACUGUGUGCGACGUGGAGAG", "RBNS enrichment (R)": 5.75}
{"Oligonucleotide": "GGGUGAGGGUUUGUAAUACAAAGAAACACUUCCAUCACUUCUGCCCUUAACCCUUGCCUCUAUUACCUAAGCUUAGUAAGUAGUUUUCUUAAUAUUGUCCAAUGUUUGGU", "RBNS enrichment (R)": 0.607}
{"Oligonucleotide": "UGGCCCUGACAUCCCCACAUGCCCGCAGAGAUCCUCUUUGAGUGUCUGUCUUUGUCCAGGUUUCAGACAUUUCUAGGUUGGGGAAGAUGCUAUUGGGAAACCUCUUCUCC", "RBNS enrichment (R)": 0.396}
{"Oligonucleotide": "AGGGGAGUGGGACUGAGAGACAGUUCCAGAGCCUCCAGGGAAGGCUUCUACUGCUAACUGCUGUAUUCUGUAUAUACUGUGCCACCCUGUGUGGAGUCUGUGAGUGUGCU", "RBNS enrichment (R)": 0.973}
{"data": "Set 2", "target": "Histone acetyltransferase KAT6A, both winged helices, GST fusion (KAT6A, Homo sapiens, UniProt Q92794, residues 1-181)", "method": "protein binding microarray", "form": "double-stranded DNA, one strand shown", "sample": "in vitro", "tested at": "not given", "notes": "8-mer, flanks averaged, mean of 2 arrays, mostly near background", "reference": "not given", "direction": "higher = stronger binding", "Target sequence (chain)": "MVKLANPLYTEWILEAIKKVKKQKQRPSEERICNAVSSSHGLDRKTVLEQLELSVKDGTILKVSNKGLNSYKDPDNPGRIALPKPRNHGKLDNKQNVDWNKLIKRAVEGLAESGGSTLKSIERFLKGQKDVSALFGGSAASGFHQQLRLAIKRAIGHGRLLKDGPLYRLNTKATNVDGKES"}
{"Oligonucleotide": "AGGACCCC", "E-score": -0.0731}
{"Oligonucleotide": "CAGCCACA", "E-score": -0.115}
{"Oligonucleotide": "CAAGCCCG", "E-score": 0.187}
{"Oligonucleotide": "ACTCGTTA", "E-score": 0.000215}
{"Oligonucleotide": "CCCTAGCA", "E-score": -0.171}
{"Oligonucleotide": "CCCTGCAG", "E-score": -0.00683}
{"data": "Set 3", "target": "CCNB2, cyclin fold, Cln2 fusion (human)", "method": "yeast growth competition, sequencing", "sample": "yeast", "notes": "weak parent motif", "reference": "not given", "direction": "higher = stronger binding", "parent": "MASTL docking peptide (human); PMIAKNLMCELDE"}
{"Substitution": "D12W", "normalised enrichment score": -0.11}
{"Substitution": "L11D", "normalised enrichment score": -0.488}
{"Substitution": "K5Q", "normalised enrichment score": -0.129}
{"Substitution": "L7G", "normalised enrichment score": -0.545}
{"Substitution": "L7N", "normalised enrichment score": -0.128}
{"data": "Single results of other studies"}
{"Molecule": "PhoQ, residues 284 288 289 292 302 303 SCCLKL", "target": "PhoP, residues 12 14 15 18 19 SYFRT (Escherichia coli, UniProt P23836)", "assay": "Sort-seq, measured: YFP reporter", "test system": "E. coli", "setting": "PhoQ-PhoP variant library, with: 10 µM Mg2+", "scale": "reference: high Mg2+ state, higher = stronger signaling", "endpoint": "fold induction", "value": 10}
{"note": "A few entries again (set 1):"}
{"Oligonucleotide": "GGGUGAGGGUUUGUAAUACAAAGAAACACUUCCAUCACUUCUGCCCUUAACCCUUGCCUCUAUUACCUAAGCUUAGUAAGUAGUUUUCUUAAUAUUGUCCAAUGUUUGGU", "RBNS enrichment (R)": 0.607}
